Published values of several laboratories.
Compare with care: the assays were run in different laboratories. Values joined by “and” are separate records of one study, mostly repeats; a detail may differ. Numbers after ± are the reported error.

SMILES	test	system	setting	how to read	endpoint	result
CC1C(c2c(F)ccc(F)c2F)CC(N[14C](=O)c2cnc3c(c2)CC2(C3)C(=O)Nc3ncccc32)C(=O)N1CC(F)(F)F (stereo not shown)	measured: total radioactivity	human, urine and feces	14 days	relative to: dose	total excretion	88.5% and ~89%
CCCC[C@H](NC(=O)CN1CCC(NC(=O)CN2CCN(CC(=O)O)CCN(CC(=O)O)CCN(CC(=O)O)CC2)CC1)C(=O)N[C@H]1CC(=O)NCCCC[C@@H](C(N)=O)NC(=O)[C@H](Cc2c[nH]c3ccccc23)NC(=O)[C@H](CCCNC(=N)N)NC(=O)[C@@H](Cc2ccccc2)NC(=O)[C@H](Cc2c[nH]cn2)NC1=O [gallium-68 labelled]	biodistribution	C57BL/6J mouse male tumour-bearing	1 h post injection, unblocked	relative to: tumour over muscle	tumour to muscle ratio	73.6 ± 30.5
CC1=C(C2=C(C)C(=O)c3c(cc(O)c(O)c3Cc3ccccc3)C2=O)C(=O)c2cc(O)c(O)c(Cc3ccccc3)c2C1=O (single isomer, unassigned)		solid	100 days, room temperature		degraded compound	5 ± 0.5%
C[C@H]1C[C@@H](Oc2cccc(F)n2)CCN1Cc1cnc(N[11C](C)=O)s1		rhesus monkey, plasma	dose not given, 30 min, pre-blocking condition		unchanged radioligand in plasma	~60%
CC(C)[C@H](NC(=O)[C@@H]1CCCN1C(=O)[C@H](CCCNC(=N)N)NC(=O)[C@H](CS)NC(=O)[C@H](Cc1c[nH]c2ccccc12)NC(=O)[C@H](CCCNC(=N)N)NC(=O)[C@@H](Cc1ccccc1)NC(=O)[C@H](Cc1c[nH]cn1)NC(=O)[C@H](CCC(=O)O)NC(=O)[C@H](CS)NC(=O)[C@H](CS)NC(=O)[C@@H]1CC(=O)N[C@@H](CCCNC(=N)N)C(=O)NCC(=O)N[C@@H](CC(=O)O)C(=O)N[C@H](Cc2ccc(O)cc2)C(=O)N1)C(N)=O [technetium-99m labelled]		C57 mice B16/F1 melanoma female	iv, 2 h, together with: NDP-MSH blockade	relative to: tumour over liver	tumour-to-tissue ratio	2.11
COC(=O)c1ccc(-c2cn(Cc3cc(Cl)ccc3O[11CH3])nn2)cc1	PET, 2TCM	rhesus macaque, hypothalamus	dose not given		distribution volume VT	0.612 mL/cm³
C=C(c1cc(F)c(C(=O)O)c(F)c1)c1cc2c(cc1C)C(C)(C)CCC2(C)C		Sprague-Dawley rat, male	oral, 100 mg/kg, 2 h, sesame oil vehicle		blood triglycerides	53 ± 14.5 mg/dL
CN1CCC[C@]1(C)/C=C/S(=O)(=O)NC(=O)Nc1c2c(cc3c1CCC3)CCC2		human, plasma	oral, 100 mg single dose		CL/F	1.1 L/h
COc1cc2c(cc1OC)CN(CCCCn1ccc3cc(OCC[18F])ccc31)C2		male ICR mice	intravenous, 280 kBq, 60 min post-injection		muscle uptake	1.93 ± 0.17 %ID/g
CC(O)c1cc(Cl)ccc1Cn1c(=S)[nH]c(=O)c2[nH]ccc21 (stereo not shown)		Sprague-Dawley rat, male, plasma	oral, 125 mg/kg/day	relative to: rat over human 10 mg	exposure ratio	5.3
CC(C)(O)c1ncc([S@](N)(=O)=NC(=O)Nc2c3c(cc4c2CCC4)CCC3)s1		healthy human volunteers, plasma	oral, 50 mg twice daily, day 1, fed, enteric-coated tablet		Tmax	4 h
Cc1ccc(OCC(=O)Nc2cc[nH]n2)cc1	LC-MS EIC	human liver microsomes, pooled, both sexes	10 µM, 60 min	relative to: reference compound at start	relative peak area	8.68%
CC(C)c1cnc(-c2cc(Cl)ccc2F)cc1Nc1ccncc1C(=O)NC(CO)CO		patients, phase I monotherapy	oral, dose not given, grade 5		patients with AST increase	0%
CN1CCC=C(C(=O)O)C1		human liver microsomes	90 min, pH 7.4	relative to: compound over guvacine	formation ratio	~30 fold
CC(=O)N[C@H](CC(=O)O)C(=O)N[C@H](Cc1c[nH]c2ccccc12)C(=O)N[C@H](Cc1ccccc1)C(=O)N[C@H](CCCCN)C(=O)N[C@H](C)C(=O)N[C@H](Cc1ccccc1)C(=O)N[C@H](Cc1ccc(O)cc1)C(=O)N[C@H](CC(=O)O)C(=O)N[C@H](CCCCN)C(=O)N[C@@H](C(=O)N[C@H](C)C(=O)N[C@H](CCC(=O)O)C(=O)N[C@H](CCCCN)C(=O)N[C@H](Cc1ccccc1)C(=O)N[C@H](CCCCN)C(=O)N[C@H](CCC(=O)O)C(=O)N[C@H](C)C(=O)N[C@H](Cc1ccccc1)C(N)=O)C(C)C		statin-treated high-risk CHD men, plasma	oral, 500 mg daily, day 13, 0 to 8 h, mean observed, outlier excluded		AUC(0-t)	104 ng·h/mL
O=C1CCc2ccc(NS(=O)(=O)c3cccc(Oc4ccccc4)c3)cc2N1	rapid equilibrium dialysis	C57BL/6J mouse, brain			unbound fraction	3.28%
CCCC[C@H](NC(C)=O)C(=O)N[C@H]1CC(=O)NCCCC[C@@H](C(=O)N[C@@H](C(=O)N2CCC[C@@H]2C(N)=O)C(C)C)NC(=O)[C@H](Cc2c[nH]c3ccccc23)NC(=O)[C@H](CCCN=C(N)N)NC(=O)[C@@H](Cc2ccc3ccccc3c2)NC(=O)[C@@H]2CCCN2C1=O		Beagle dog, both sexes, plasma	subcutaneous, once daily, 2.25 mg/kg, day 5		half-life	2.5 ± 0.1 h
CC(C)(F)CC(NC(c1ccc(-c2ccc(S(C)(=O)=O)cc2)cc1)C(F)(F)F)C(=O)NCC#N (stereo not shown)	LC-MS UV trace	aqueous buffer	concentration not given, 23 h, pH 5.5, 37 °C, together with: cysteine 10 mM		cysteine adduct formation	5%
COc1ccc(COC[C@](O)(CNCc2ccc(F)cc2)[C@@H]2CC[C@@H](C)C[C@H]2OCc2ccc(OC)cc2)cc1	PAMPA-GI	phosphatidylcholine-cholesterol membrane	500 µM, 4 h, pH 6.5, 37 °C, 5% DMSO		permeability	33.2 ± 3.3 ×10⁻⁶ cm/s
O=C(CCc1ccc(CNC(C(=O)OC2CCCC2)C2CCCCC2)cn1)NO (stereo not shown)		human	40 mg once daily, day 7, geometric mean		CL/F	159 L/h
CCOc1c(C(C)(C)O)sc2cnc(Nc3ccc(N4CCC(N5CC6(COC6)C5)CC4)cc3OC)nc12		New Zealand rabbit, male, isolated Purkinje fibres	30 µM, 45 min, pacing 0.25 Hz		action potential amplitude change	-4 ± 2%
CCCC[C@H](NC(=O)CNC(=O)CNC(=O)CN1CCN(CC(=O)O)CCN(CC(=O)O)CCN(CC(=O)O)CC1)C(=O)N[C@H]1CC(=O)NCCCC[C@@H](C(N)=O)NC(=O)[C@H](Cc2c[nH]c3ccccc23)NC(=O)[C@H](CCCNC(=N)N)NC(=O)[C@@H](Cc2ccccc2)NC(=O)[C@H](Cc2c[nH]cn2)NC1=O [indium-111 labelled]		C57 mouse, female, B16/F1 melanoma, urine	intravenous, 0.037 MBq, 2 h		urinary excretion	88.5 ± 1.75%
CCCCN1C(=O)c2cccc3c(NCCCCCCN4CCOCC4)ccc(c23)C1=O		aqueous medium	pH 6		average fluorescence lifetime	4.2 ns
CCCC[C@H](NC(=O)CNC(=O)CNC(=O)CN1CCN(CC(=O)O)CCN(CC(=O)O)CCN(CC(=O)O)CC1)C(=O)N[C@H]1CC(=O)NCCCC[C@@H](C(N)=O)NC(=O)[C@H](Cc2c[nH]c3ccccc23)NC(=O)[C@H](CCCNC(=N)N)NC(=O)[C@@H](Cc2ccccc2)NC(=O)[C@H](Cc2c[nH]cn2)NC1=O [gallium-67 labelled]		female C57 mice, B16/F1 melanoma	intravenous, 0.037 MBq, 4 h	relative to: tumour over lung	tumour to tissue ratio	70
CC(=O)c1cnc(N)nc1N1CC[C@H]1c1nn2ccc(Cl)c2c(=O)n1-c1ccccc1		rat Wistar female collagen-induced arthritis, plasma	oral, 0.3 mg/kg twice daily		AUC	1880 ± 112 ng·h/mL
